Assay results collected from several papers.
Numbers after ± are the reported error.

CSCC[C@H](NC(=O)[C@H](CCCCN)NC(=O)[C@H](CCCNC(=N)N)NC(=O)[C@H](Cc1ccccc1)NC(=O)CNC(=O)[C@H](CO)NC(=O)[C@H](CCC(N)=O)NC(=O)[C@H](CC(C)C)NC(=O)[C@@H](NC(=O)[C@H](C)NC(=O)[C@H](CO)NC(=O)[C@@H](NC(=O)[C@H](CCCCN)NC(=O)c1ccc(N=Nc2ccc(N(C)C)cc2)cc1)[C@@H](C)O)C(C)C)C(=O)N[C@@H](CCC(=O)O)C(=O)NCCNc1cccc2c(S(=O)(=O)O)cccc12  solubility (shake-flask HPLC; 1 h, pH 7.2, 37 °C, 5% DMSO, 0.01% Triton X-100): 47.4 ± 1.3 µM
COc1ccc(NC(=O)CN(C)S(=O)(=O)c2cc(C)cc3cn[nH]c23)cc1Cl  solubility (aqueous buffer; pH 6.8): 18 µg/mL
CC(C)(CN)CNC(=O)O[C@H]1CCCC2(C1)OOC1(O2)C2CC3CC(C2)CC1C3 (stereo partly shown)  solubility (PBS; pH 7.4): 164 µM
CSCC[C@H](N)C(=O)N[C@@H](CCC(N)=O)C(=O)N[C@@H](CCC(=O)O)C(=O)N[C@@H](CC(C)C)C(=O)N[C@@H](CCCNC(=N)N)C(=O)N[C@@H](Cc1c[nH]c2ccccc12)C(=O)N[C@@H](CS)C(=O)N[C@@H](CC(N)=O)C(N)=O  solubility: < 40000 µg/mL
O=C(N=P12CN3CN(CN(C3)C1)C2)c1cccc[c]1[Pd][Br].c1cncc(P(c2cccnc2)c2cccnc2)c1  solubility (water): 500 µM
CC(NC(=O)NNS(=O)(=O)c1ccc(OC(F)F)cc1)(C(F)(F)F)C(F)(F)F  solubility (aqueous buffer): 18 µM
COc1ccc2c3c([nH]c2c1)CCN(C)CC3  solubility (0.9% saline; fumarate salt): ≥ 40000 µg/mL
O=c1c2ccccc2[se]n1CCCCn1[se]c2ccccc2c1=O  solubility (5% Soluplus in water; 24 h, 25 °C, 50 mg/mL): 116 ± 10 µg/mL
COc1ccc(NC(=O)CN(C)S(=O)(=O)c2cc(C)cnc2N)cc1Cl  solubility (aqueous buffer; pH 6.8): 4.6 µg/mL
O=c1c2ccccc2[se]n1CCCn1[se]c2ccccc2c1=O  solubility (10% Soluplus in water; 24 h, 25 °C, 100 mg/mL): 232 ± 13 µg/mL
CC(=O)CCC1C(=O)NC(C(C)C)C(=O)NC(Cc2cccc(O)c2)C(=O)N2CCCC(N2)C(=O)OC(C(C)=CC=CC(=O)N2CCCCO2)CC=CC=CC(O)C(C)C1O (stereo not shown)  solubility (PBS with 1% DMSO; 4 h, pH 7.4, room temperature): 330 µM
CCN(CC)CCOc1ccc(-c2nnn(Cc3ccc(OC)cc3)c2N)cc1  solubility (extracellular solution, 0.3% DMSO; pH 6.9, soluble up to): ≤ 100 µM
Cc1cnc(N)c(S(=O)(=O)N(C)CC(=O)Nc2ccn(C)c(=O)c2)c1  solubility (aqueous buffer; pH 6.8): > 97 µg/mL
Nc1nc(Nc2ccc(Cl)cc2)nn1S(=O)(=O)c1ccc2ccccc2c1  solubility (4 (unit not given), pH 7.4): < 0.2 µM
COc1ccc(NC(=O)CN(C)S(=O)(=O)c2cc(C)cnc2N)cn1  solubility (aqueous buffer; pH 6.8): > 97 µg/mL
CCN1CCN(Cc2nc3ccc([N+](=O)[O-])cc3c(=O)n2-c2ccccc2F)CC1  solubility (pH 7.4): 122 µg/mL
Cc1ccc(/C=C/C(=O)O)cc1-c1cc2c(cc1C)C(C)(C)CCC2(C)C  solubility (deionized water; 24 h, 20 °C): 7.6 ± 0.1 µM
O=C(CN1CCN(c2cc3c(cc2F)c(=O)c(C(=O)O)cn3C2CC2)CC1)Nc1ccc(Cl)cc1  solubility (DPBS:Tween-80:ethanol 85:10:5): 500 µg/mL
CC(C)(C)c1ccc(C(=O)Nc2cc(Cl)c(Br)cc2C(=O)O)cc1  solubility (kinetic; PBS; pH 7.4): 62.3 µM
CC(=O)N[C@H]1CSCc2cc(CN=[N+]=[N-])cc(c2)CSC[C@@H](C(N)=O)NC(=O)[C@H](CC(N)=O)NC(=O)[C@H](CC(N)=O)NC(=O)[C@H](CC(C)C)NC(=O)[C@H](CC(C)C)NC(=O)[C@H](Cc2ccccc2)NC(=O)[C@H](C(C)C)NC(=O)[C@H](CC(=O)O)NC(=O)[C@H]([C@@H](C)O)NC(=O)[C@H](CCC(=O)O)NC(=O)[C@H](CC(N)=O)NC(=O)[C@H](CCC(=O)O)NC(=O)CNC(=O)[C@H](Cc2c[nH]c3ccccc23)NC(=O)[C@H]([C@@H](C)O)NC1=O  solubility (acetonitrile/water 1:1 with 0.1% TFA; crude cyclic peptide): 5600 µg/mL
Cc1ccc(-n2nc3c(=O)n(CCCC(=O)NCC(C)c4ccccc4)nc(C)c3c2C)cc1 (stereo not shown)  solubility (PBS; 24 h, pH 7.4, 37 °C): 30 µM
CCCCCCCCCCCCCCCC(=O)Nc1nc2ccccc2c2c1ncn2CC(C)C  solubility: 2900 µg/mL
O=C(NCc1ccco1)C1CCN(S(=O)(=O)c2ccc(Cl)cc2)CC1  solubility (pH 6.5): 80 µM
Cc1cnc(N)c(S(=O)(=O)N(C)CC(=O)Nc2ccc(C#N)c(Cl)c2)c1  solubility (aqueous buffer; pH 6.8): 0.15 µg/mL
O=P([O-])([O-])Oc1ccc(-c2cc(=S)ss2)cc1.[Na+].[Na+]  solubility (HPLC; 0.9% NaCl; 24 h, pH 7.4, 25 °C): 1560 ± 148 µg/mL
CSCC[C@H](NC(=O)[C@H](CCC(=O)O)NC(=O)[C@H](Cc1ccc(O)cc1)NC(=O)[C@@H](NC(=O)[C@H](CC(C)C)NC(=O)[C@H](CC(=O)O)NC(=O)[C@H](CC(C)C)NC(C)=O)[C@@H](C)O)C(=O)N[C@@H](CC(C)C)C(=O)N[C@@H](CO)C(=O)N[C@@H](CC(C)C)C(=O)N[C@@H](CCC(N)=O)C(=O)N[C@@]1(C)CCCC=CCCC[C@@](C)(C(=O)N[C@@H](CC(C)C)C(=O)N[C@@H](CC(N)=O)C(=O)N[C@@H](CCC(=O)O)C(=O)N[C@@H](CO)C(=O)N[C@@H](Cc2ccc(O)cc2)C(N)=O)NC(=O)[C@H](CCCCN)NC(=O)[C@H](C(C)C)NC(=O)[C@H](C(C)C)NC1=O  solubility (concentration not given, 24 (unit not given), pH 7.4): 6470 µg/mL
CC[C@H](C)[C@H](N)C(=O)N[C@@H](CCC(=O)O)C(=O)N[C@@H](CCC(=O)O)C(=O)N[C@@H](CCC(N)=O)C(=O)N[C@@H](C)C(=O)N[C@@H](CCCCN)C(=O)N[C@H](C(=O)N[C@@H](C)C(=O)N[C@@H](CC(C)C)C(=O)N[C@@H](CC(=O)O)C(=O)N[C@@H](CCCCN)C(=O)N[C@@H](C)C(=O)N[C@@H](CC(N)=O)C(=O)N[C@@H](Cc1c[nH]cn1)C(=O)N[C@@H](CCC(=O)O)C(=O)N[C@@H](C)C(=O)N[C@@H](CCC(=O)O)C(=O)N[C@@H](CC(=O)O)C(=O)N[C@@H](CC(C)C)C(=O)N[C@@H](C)C(=O)N[C@@H](Cc1ccc(O)cc1)C(=O)N[C@@H](CCC(N)=O)C(=O)N[C@@H](CO)C(=O)N[C@@H](CCCCN)C(N)=O)[C@@H](C)O  solubility (PBS; pH 7.5): ≥ 800 µM
Cc1cc(S(=O)(=O)N(C)CC(=O)Nc2ccc(N3CCOCC3)c(Cl)c2)c2[nH]ncc2c1  solubility (aqueous buffer; pH 6.8): 23 µg/mL

Some of these lines once more:
Nc1nc(Nc2ccc(Cl)cc2)nn1S(=O)(=O)c1ccc2ccccc2c1  solubility (4 (unit not given), pH 7.4): < 0.2 µM
COc1ccc(NC(=O)CN(C)S(=O)(=O)c2cc(C)cnc2N)cn1  solubility (aqueous buffer; pH 6.8): > 97 µg/mL
CCN1CCN(Cc2nc3ccc([N+](=O)[O-])cc3c(=O)n2-c2ccccc2F)CC1  solubility (pH 7.4): 122 µg/mL
